# Experimental data of several laboratories.
# Every numbered part comes from another study and shows a few of its results, in no order. pEC50: −log10 of the molar value.
# UniProt O14730, sequence (whole entry, looked up): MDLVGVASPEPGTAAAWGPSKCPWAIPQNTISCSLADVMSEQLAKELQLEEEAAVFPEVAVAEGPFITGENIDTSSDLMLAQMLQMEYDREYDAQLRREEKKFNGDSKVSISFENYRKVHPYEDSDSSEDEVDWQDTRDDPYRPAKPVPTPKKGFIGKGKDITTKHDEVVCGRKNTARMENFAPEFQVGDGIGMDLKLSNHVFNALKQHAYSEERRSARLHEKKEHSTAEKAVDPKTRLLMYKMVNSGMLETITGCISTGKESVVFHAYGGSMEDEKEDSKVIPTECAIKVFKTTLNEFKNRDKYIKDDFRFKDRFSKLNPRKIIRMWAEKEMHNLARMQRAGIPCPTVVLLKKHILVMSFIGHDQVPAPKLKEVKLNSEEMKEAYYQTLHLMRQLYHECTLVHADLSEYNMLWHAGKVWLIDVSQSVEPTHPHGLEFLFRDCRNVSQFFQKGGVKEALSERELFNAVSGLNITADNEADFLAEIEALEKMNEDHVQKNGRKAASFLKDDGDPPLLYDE
# UniProt Q04759, sequence (whole entry, looked up): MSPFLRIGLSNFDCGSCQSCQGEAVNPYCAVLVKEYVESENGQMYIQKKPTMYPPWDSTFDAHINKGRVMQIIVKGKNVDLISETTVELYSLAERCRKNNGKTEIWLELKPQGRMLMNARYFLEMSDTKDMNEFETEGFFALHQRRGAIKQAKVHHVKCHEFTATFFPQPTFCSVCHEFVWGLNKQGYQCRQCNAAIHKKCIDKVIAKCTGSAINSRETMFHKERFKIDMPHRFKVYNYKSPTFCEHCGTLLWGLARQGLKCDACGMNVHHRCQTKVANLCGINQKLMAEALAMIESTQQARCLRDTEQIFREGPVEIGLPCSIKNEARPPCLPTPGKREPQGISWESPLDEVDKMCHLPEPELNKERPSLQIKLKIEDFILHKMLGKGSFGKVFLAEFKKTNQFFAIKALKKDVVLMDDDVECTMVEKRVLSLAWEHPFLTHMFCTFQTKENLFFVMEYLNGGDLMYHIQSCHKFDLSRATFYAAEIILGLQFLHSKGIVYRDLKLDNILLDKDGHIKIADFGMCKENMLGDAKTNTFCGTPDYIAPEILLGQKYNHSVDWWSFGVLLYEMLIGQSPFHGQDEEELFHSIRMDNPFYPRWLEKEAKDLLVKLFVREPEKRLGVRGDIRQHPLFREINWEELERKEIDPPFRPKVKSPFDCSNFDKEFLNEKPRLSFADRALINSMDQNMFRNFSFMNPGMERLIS

# Block 1
# Cell line: mouse MPNST tumor cells
# Technique: high-content nuclear imaging
# Measured: cell number
# Concentration: 10 µM
# Time: 12 h
# Setting: mean of 2 replicates
# Relative to: plate mean
# Direction: higher = more cells
Compound,nuclei count
c1ccc2c(c1)CCC[C@H]2Nc1nc2ccccc2[nH]1,2.37 z-score
Cn1ncc2c(N3CCOCC3)nc(-c3cccc(O)c3)nc21,-0.79 z-score
CC1CCc2c(N3CCC(O)CC3)c(F)cc3c(=O)c(C(=O)O)cn1c23 (stereo not drawn),0.774 z-score
COc1ccc(OC(F)(F)F)cc1CN[C@H]1CCCN[C@H]1c1ccccc1,-4.74 z-score

# Block 2
# SMILES: COc1ccc(-c2c(Nc3ccccn3)[nH]c3c(C4=CCCCC4)c(-c4ccccc4)nn3c2=O)cc1
# Sample: plasma
# Route: oral
test,test system,conditions,"plasma concentration, geometric mean"
,cancer patients,"150 mg, 3 h post-dose, single dose",1370 ng/mL
,cancer patients,"50 mg, 3 h post-dose, single dose",435 ng/mL
,cancer patients,"400 mg, 1 h post-dose, single dose",293 ng/mL
,human patients,"100 mg once daily, 3 h, cycle 1",3480 ng/mL
LC-MS/MS,human,"200 mg twice daily, 4 h",11100 ng/mL
,cancer patients,"100 mg, 6 h post-dose, single dose",947 ng/mL

# Block 3
# SMILES: CC(C)n1cnc(-c2ccc(F)cc2)c1-c1ncc(C(=O)Nc2ccc(N3CCN(C)CC3)cc2)[nH]1
# Technique: phase 2a clinical trial
# Species: patients with idiopathic pulmonary fibrosis
conditions,patients with AST increase
"60 mg once daily, without standard of care",0%
"60 mg once daily, added: standard of care",9.1%
"30 mg once daily, without standard of care",0%

# Block 4
# Target: Serine/threonine-protein kinase A-Raf (ARAF, Homo sapiens, UniProt P10398)
# UniProt P10398, sequence (whole entry, looked up): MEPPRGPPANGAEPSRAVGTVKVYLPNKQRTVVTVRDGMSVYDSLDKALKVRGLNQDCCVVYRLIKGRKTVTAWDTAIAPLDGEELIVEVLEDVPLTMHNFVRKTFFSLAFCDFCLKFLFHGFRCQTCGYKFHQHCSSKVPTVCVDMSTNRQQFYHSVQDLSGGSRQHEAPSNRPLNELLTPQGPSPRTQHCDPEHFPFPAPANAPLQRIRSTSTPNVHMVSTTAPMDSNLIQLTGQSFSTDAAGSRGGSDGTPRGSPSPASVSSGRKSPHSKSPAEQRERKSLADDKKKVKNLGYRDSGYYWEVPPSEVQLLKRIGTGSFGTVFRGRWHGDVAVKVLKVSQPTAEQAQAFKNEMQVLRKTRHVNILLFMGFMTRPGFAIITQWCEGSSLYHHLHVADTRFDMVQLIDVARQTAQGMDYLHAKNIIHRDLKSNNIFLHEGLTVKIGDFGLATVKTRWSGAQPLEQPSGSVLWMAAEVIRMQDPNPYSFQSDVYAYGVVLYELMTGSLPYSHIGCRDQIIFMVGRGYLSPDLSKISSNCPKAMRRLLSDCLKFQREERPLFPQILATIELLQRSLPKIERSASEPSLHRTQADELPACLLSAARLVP
# Read-out: enzyme activity
# Action: inhibitor
# Concentration: 0.5 µM
# Relative to: control
Compound,remaining activity [%]
CN(C)c1ccc(C=C2C(=O)Nc3ccccc32)cc1,94.3
Cn1c2ccccc2c2c3c(c4c5ccccc5n(CCC#N)c4c21)CNC3=O,103
CC(C)[C@H](CO)Nc1nc(Nc2cc(N)cc(Cl)c2)c2ncn(C(C)C)c2n1,82.4
NCCNc1ncc(C(N)=O)c(Nc2cccc(C(F)(F)F)c2)n1,98.5
N#CC(C#N)=C(N)/C(C#N)=C/c1ccc(O)cc1,90.8
Cc1cccc(-c2[nH]c(C(C)(C)C)nc2-c2ccc3c(c2)OCO3)n1,99.2
Cc1ccc(Nc2nccc(N(C)c3ccc4c(C)n(C)nc4c3)n2)cc1S(N)(=O)=O,76.5
Nc1ncnc2n[nH]c(Nc3ccc(F)cc3)c12,80.7
COc1cc2ncnc(Nc3ccc(F)c(Cl)c3)c2cc1OCCCN1CCOCC1,95.3
Nc1[nH]nc2nc3ccccc3nc12,119
Cc1ccc(NC(=O)c2ccc(CN3CCN(C)CC3)cc2)cc1Nc1nc(-c2cccnc2)cs1,102
COc1ccc(OC)c2c(=S)c3ccccc3[nH]c12,122
O=C(CCCc1ccc(-c2ccccc2F)cc1)Nc1ccc(O)cc1,104
Oc1ccc(-c2nc(-c3ccncc3)c(-c3ccc(F)cc3)[nH]2)cc1,31.1
Cn1sc(=O)n(Cc2ccccc2)c1=O,94.6
COc1ccc(CNC(=O)Nc2ncc([N+](=O)[O-])s2)cc1,91
OCC(O)CCON=C1C(c2c(O)[nH]c3ccccc23)=Nc2ccccc21 (stereo not drawn),107
CCOC(=O)c1c(C)[nH]c(/C=C2\C(=O)Nc3ccccc32)c1C,94.7

# Block 5
# Target: Beta-1 adrenergic receptor (ADRB1, Homo sapiens, UniProt P08588)
# UniProt P08588, sequence (whole entry, looked up): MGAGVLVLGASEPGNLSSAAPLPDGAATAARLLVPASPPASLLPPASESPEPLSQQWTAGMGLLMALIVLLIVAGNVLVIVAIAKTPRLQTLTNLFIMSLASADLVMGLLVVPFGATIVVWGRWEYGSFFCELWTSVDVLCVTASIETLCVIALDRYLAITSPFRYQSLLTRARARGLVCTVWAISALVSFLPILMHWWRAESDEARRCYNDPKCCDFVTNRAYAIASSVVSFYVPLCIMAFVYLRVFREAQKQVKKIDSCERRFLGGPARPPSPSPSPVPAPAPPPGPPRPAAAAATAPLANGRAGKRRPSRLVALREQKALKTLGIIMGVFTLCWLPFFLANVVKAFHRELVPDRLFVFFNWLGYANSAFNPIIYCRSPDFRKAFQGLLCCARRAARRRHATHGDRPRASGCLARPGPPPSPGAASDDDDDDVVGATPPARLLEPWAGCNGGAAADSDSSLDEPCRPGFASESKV
# Action: agonist
SMILES,pEC50
N[S+](=O)([O-])c1ccc(Cc2c(-c3ccc(F)c(C#Cc4ccc(CNCCOCCOCCNC(=O)COc5cccc6c5C(=O)N(C5CCC(=O)NC5=O)C6=O)s4)c3)nn(-c3nc(C(=O)O)cs3)c2CC2CC2)cc1F (stereo not drawn),≤ 4.00
Cc1nc(Cn2nc(-c3ccccc3)ccc2=O)nc2ccccc12,≤ 4.00
Cc1ccccc1-c1n[nH]c2ncc(-c3cccc(O)c3)nc12,≤ 4.00
N#Cc1ccc(C(=O)Nc2ccc([C@@H](O)[C@H]3COCC(=O)N3Cc3ccc(F)cc3)cc2)cc1,≤ 4.00

# Block 6
# SMILES: O=c1nc(-c2ccccn2)sc2ccccc12
# Technique: competition with immobilised ligand
# Concentration: 1 µM
target,test,remaining binding
"Serine/threonine-protein kinase RIO3 (RIOK3, Homo sapiens, UniProt O14730)",binding,99%
"Tyrosine-protein kinase ABL1, non-phosphorylated (ABL1, Homo sapiens, UniProt P00519, H396P)",binding,100%
"Tyrosine-protein kinase ABL1, phosphorylated (ABL1, Homo sapiens, UniProt P00519, F317L)",binding,100%
"Protein kinase C theta type (PRKCQ, Homo sapiens, UniProt Q04759)",cell-free assay,90%

# Excerpt of the above (block 4):
Compound,remaining activity [%]
COc1ccc(OC)c2c(=S)c3ccccc3[nH]c12,122
O=C(CCCc1ccc(-c2ccccc2F)cc1)Nc1ccc(O)cc1,104
Oc1ccc(-c2nc(-c3ccncc3)c(-c3ccc(F)cc3)[nH]2)cc1,31.1
Cn1sc(=O)n(Cc2ccccc2)c1=O,94.6
